Published values from different studies.
± gives the spread as reported.
HDAC3: Histone deacetylase 3 (HDAC3, Homo sapiens, UniProt O15379)
Sequence of UniProt O15379 (whole entry, looked up): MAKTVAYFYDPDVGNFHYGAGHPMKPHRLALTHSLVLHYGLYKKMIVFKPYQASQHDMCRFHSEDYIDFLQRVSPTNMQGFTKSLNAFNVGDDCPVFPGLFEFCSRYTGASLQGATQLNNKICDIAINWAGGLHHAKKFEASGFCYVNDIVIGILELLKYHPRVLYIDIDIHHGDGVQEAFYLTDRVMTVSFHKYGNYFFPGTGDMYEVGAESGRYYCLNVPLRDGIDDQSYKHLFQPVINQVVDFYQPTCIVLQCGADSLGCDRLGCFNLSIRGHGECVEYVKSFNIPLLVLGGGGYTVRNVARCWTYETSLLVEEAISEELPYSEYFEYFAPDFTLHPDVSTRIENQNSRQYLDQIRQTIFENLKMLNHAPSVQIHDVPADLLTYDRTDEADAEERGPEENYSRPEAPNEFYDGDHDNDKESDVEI
PIK3CB: Phosphatidylinositol 4,5-bisphosphate 3-kinase catalytic subunit beta isoform (PIK3CB, Homo sapiens, UniProt P42338)
Sequence of UniProt P42338 (whole entry, looked up): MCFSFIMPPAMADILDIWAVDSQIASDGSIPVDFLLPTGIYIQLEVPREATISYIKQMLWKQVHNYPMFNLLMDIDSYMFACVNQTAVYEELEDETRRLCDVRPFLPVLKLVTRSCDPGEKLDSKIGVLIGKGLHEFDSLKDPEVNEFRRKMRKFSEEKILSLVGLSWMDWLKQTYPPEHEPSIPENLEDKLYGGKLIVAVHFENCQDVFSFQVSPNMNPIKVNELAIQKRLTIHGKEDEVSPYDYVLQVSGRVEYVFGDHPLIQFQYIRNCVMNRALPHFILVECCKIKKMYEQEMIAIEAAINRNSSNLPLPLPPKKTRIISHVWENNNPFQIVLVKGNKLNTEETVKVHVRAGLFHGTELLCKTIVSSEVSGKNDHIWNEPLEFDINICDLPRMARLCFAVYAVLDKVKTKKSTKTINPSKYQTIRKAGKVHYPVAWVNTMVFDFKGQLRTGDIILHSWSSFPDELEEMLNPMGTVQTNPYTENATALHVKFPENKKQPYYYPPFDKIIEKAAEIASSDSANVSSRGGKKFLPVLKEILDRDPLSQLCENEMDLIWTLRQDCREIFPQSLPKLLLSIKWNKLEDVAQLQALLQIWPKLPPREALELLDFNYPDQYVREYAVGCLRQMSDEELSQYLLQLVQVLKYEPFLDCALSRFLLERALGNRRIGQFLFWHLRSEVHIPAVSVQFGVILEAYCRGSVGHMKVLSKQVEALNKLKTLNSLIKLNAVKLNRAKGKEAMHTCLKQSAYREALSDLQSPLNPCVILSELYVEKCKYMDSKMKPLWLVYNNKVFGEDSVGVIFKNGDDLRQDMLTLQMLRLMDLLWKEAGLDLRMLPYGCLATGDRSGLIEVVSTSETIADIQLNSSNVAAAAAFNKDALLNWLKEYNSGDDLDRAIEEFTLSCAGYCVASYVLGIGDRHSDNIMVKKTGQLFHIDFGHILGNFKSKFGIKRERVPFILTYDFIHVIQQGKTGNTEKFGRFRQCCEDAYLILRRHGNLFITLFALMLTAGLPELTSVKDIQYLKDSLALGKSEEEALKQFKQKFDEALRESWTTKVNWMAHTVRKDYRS
PRKCA: Protein kinase C alpha type (PRKCA, Homo sapiens, UniProt P17252)
CDK2 with cyclin A: Cyclin-dependent kinase 2, with cyclin A (CDK2, Homo sapiens, UniProt P24941)
Genome polyprotein protease: Genome polyprotein, protease (Hepatitis C virus genotype 1b, UniProt O92972)
PSMB6: Proteasome subunit beta type-6 (PSMB6, Homo sapiens, UniProt P28072)
Sequence of UniProt P28072 (whole entry, looked up): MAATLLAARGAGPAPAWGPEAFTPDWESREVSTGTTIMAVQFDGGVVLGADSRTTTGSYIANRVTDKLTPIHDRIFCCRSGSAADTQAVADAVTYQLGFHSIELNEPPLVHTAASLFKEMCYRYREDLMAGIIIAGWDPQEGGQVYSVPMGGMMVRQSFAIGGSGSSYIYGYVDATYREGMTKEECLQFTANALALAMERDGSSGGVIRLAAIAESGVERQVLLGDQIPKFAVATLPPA
HDAC8: Histone deacetylase 8 (HDAC8, Homo sapiens, UniProt Q9BY41)
Sequence of UniProt Q9BY41 (whole entry, looked up): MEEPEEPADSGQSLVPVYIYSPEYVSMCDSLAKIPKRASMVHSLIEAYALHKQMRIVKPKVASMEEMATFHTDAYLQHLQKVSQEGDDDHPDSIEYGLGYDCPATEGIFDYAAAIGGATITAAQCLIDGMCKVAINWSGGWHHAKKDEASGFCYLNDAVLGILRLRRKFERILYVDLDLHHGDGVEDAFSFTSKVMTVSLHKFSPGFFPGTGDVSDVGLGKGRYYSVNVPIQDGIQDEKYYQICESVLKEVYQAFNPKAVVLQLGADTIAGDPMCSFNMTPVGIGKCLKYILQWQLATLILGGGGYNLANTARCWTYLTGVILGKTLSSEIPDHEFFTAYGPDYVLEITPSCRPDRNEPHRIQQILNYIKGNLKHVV
SLC10A1: Hepatic sodium/bile acid cotransporter (SLC10A1, Homo sapiens, UniProt Q14973)
Sequence of UniProt P35346 (whole entry, unmodified, looked up): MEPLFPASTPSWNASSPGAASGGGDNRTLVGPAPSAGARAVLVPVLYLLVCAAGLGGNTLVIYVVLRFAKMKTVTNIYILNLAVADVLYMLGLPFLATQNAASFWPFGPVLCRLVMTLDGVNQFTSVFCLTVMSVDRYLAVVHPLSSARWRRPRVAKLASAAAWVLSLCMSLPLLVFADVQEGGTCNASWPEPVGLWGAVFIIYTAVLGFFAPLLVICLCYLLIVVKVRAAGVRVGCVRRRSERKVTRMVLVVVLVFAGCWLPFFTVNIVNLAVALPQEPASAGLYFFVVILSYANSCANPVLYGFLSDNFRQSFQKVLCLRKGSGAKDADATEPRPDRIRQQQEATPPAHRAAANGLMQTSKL
Sequence of UniProt Q86YV6 (whole entry, looked up): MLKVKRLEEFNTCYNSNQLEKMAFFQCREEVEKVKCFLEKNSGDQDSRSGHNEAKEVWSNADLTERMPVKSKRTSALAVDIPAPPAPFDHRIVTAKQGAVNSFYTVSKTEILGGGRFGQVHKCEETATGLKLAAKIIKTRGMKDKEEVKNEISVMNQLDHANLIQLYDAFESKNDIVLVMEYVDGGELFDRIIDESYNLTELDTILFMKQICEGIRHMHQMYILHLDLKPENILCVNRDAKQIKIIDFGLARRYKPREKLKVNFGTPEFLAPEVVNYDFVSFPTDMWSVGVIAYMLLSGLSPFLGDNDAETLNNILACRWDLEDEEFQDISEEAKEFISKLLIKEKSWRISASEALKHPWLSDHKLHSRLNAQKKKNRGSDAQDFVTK
Sequence of UniProt P14060 (whole entry, looked up): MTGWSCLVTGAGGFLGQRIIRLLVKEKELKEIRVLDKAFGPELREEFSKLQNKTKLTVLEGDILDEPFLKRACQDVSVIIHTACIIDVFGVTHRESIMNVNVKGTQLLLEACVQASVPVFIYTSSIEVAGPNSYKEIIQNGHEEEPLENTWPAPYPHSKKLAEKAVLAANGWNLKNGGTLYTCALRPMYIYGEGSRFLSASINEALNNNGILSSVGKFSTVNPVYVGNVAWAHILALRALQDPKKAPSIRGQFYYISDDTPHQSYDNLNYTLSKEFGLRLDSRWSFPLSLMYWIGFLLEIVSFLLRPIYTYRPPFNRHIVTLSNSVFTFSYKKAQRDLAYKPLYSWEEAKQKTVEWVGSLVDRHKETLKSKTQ
Sequence of UniProt P48544 (whole entry, looked up): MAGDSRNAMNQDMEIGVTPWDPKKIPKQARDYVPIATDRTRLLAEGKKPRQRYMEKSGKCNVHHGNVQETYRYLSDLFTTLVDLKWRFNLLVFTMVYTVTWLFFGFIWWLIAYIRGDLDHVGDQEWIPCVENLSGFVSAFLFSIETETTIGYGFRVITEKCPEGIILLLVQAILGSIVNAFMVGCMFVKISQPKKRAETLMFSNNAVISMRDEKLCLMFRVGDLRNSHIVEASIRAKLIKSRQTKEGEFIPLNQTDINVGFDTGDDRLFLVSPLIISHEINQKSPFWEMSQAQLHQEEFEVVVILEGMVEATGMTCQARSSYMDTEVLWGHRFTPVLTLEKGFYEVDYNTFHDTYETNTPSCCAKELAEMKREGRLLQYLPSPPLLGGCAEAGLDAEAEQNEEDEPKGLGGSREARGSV
Sequence of UniProt Q9UGN5 (whole entry, looked up): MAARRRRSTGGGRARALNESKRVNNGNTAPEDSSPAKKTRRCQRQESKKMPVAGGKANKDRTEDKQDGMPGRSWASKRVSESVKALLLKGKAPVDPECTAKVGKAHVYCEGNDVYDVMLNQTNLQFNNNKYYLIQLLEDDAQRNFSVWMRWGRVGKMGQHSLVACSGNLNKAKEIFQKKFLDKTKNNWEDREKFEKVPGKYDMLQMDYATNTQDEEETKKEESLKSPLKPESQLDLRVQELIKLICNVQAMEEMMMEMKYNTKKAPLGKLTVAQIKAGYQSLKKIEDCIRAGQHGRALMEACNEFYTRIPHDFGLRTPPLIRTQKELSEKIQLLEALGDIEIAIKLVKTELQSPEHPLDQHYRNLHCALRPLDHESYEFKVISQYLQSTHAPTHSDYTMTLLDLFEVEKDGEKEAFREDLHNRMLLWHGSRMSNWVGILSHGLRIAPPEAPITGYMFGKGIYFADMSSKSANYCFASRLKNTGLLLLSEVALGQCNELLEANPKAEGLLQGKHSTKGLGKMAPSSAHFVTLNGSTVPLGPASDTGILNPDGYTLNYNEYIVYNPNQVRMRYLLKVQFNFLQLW

target | assay | system | setting | IC50 [nM] | Compound
HDAC3 | enzyme activity, inhibitor |  |  | 74.9 | Cc1c(COc2cc(OCc3cccc(C#N)c3)c(CNC(CO)(CO)CO)cc2Cl)cccc1-c1cccc(OCCCCCC(=O)NO)c1
Glycogen synthase kinase-3 beta (GSK3B, Homo sapiens, UniProt P49841) | target engagement in cells, BRET |  |  | 35 | O=C(Nc1c[nH]nc1C(=O)NC1CCNCC1)c1cc(F)cc(F)c1
cGMP-specific 3',5'-cyclic phosphodiesterase (PDE5A, Homo sapiens, UniProt O76074) | enzyme activity, inhibitor |  |  | 248 | C[C@@H](Nc1nc2c(cnn2C(C)(C)C)c(=O)n1Cc1cccc(F)c1)c1ccc(Cl)cc1
DNA topoisomerase 1 (TOP1, Homo sapiens, UniProt P11387) | enzyme activity, inhibitor |  |  | 8000 | C1=[N+]2CCC[N+]3=Cc4ccc5[n]4[Au-]23[n]2c1ccc2-c1nc2ccccc2nc1-5.F[P-](F)(F)(F)(F)F
PIK3CB | enzyme activity, inhibitor, ADP detection |  |  | 46.8 | O=C1/C(=N\c2ccccc2Br)c2ccccc2N1Cc1ccc([N+](=O)[O-])cc1
Bcl-2-related protein A1 (Mus musculus, UniProt Q07440, C113S/P104K) | ligand displacement, FP |  |  | 390000 | c1ccc(CN2COc3c(c4c(c5c3CN(Cc3ccccc3)CO5)CN(Cc3ccccc3)CO4)C2)cc1
PRKCA | enzyme activity, inhibitor |  |  | > 10000 | CCN(CC)CC(=O)Nc1cccc(-n2cc(-c3ccc4ccc(-c5cn(-c6cccc(NC(=O)CN(CC)CC)c6)nn5)cc4c3)nn2)c1
HDAC3 | enzyme activity, inhibitor |  |  | 46.1 | Cc1c(COc2cc(OCc3cccc(C#N)c3)c(CN3CCCC[C@@H]3C(=O)O)cc2Cl)cccc1-c1cccc(OCCCCCC(=O)NO)c1
Sodium channel protein type 8 subunit alpha (SCN8A, Homo sapiens, UniProt Q9UQD0) | Nav1.6 sodium current, inhibitor, automated patch clamp |  |  | > 33800 | Cc1ccc(C(=O)Nc2ccnc(S(N)(=O)=O)c2)c(N2CCCC(F)(F)CC2)n1
PIK3CB | enzyme activity, inhibitor, ADP detection |  |  | 101 | COc1ccccc1/C=C1\C(=O)N(C)c2ccc(N(C)c3nc(C)nc4ccccc34)cc21
CDC2-like kinase 1 (Trypanosoma brucei brucei, UniProt Q382U0) | enzyme activity, inhibitor, ADP-Glo |  |  | > 20000 | Cc1ccc2c(c1)nc(NC(=O)c1cccc(C(F)(F)F)c1)n2[C@H]1CC[C@H](N)CC1
PRKCA | enzyme activity, inhibitor, mobility shift |  |  | 1930 | Cc1cc(NC2CCN(C)CC2)ccc1-c1cc2c(N3CCC[C@H](C(=O)NCc4ccc(OC(F)(F)F)cc4)C3)ncnc2[nH]1
PIK3CB | enzyme activity, inhibitor, ADP detection |  |  | 49.4 | O=C(CCc1ccccc1)N1C(=O)C2(NC(c3ccc(F)cc3)C3(C(=O)Nc4ccccc43)N2Cc2ccc(F)cc2)c2ccccc21 (stereo not shown)
CDK2 with cyclin A | radiometric |  | together with: 1 µM ATP | 4000 | CC(=O)Nc1cc(Cc2ccccc2)[nH]n1
env (Human immunodeficiency virus 1, UniProt Q75760) | HIV-1 infection | Cf2Th-CD4/CCR5 cells | 48 h | 1600 | CNCc1ccc2c(c1)N(C(=O)OCCC(F)(F)F)[C@H](CNC(=N)N)[C@H]2NC(=O)C(=O)Nc1ccc(Cl)c(F)c1
Insulin-like growth factor 1 receptor (IGF1R, Homo sapiens, UniProt P08069) | enzyme activity, inhibitor, radiometric |  |  | 455 | CCn1nc(Cl)c2c1-c1cnc(N)c(c1)O[C@H](C)c1cc(F)ccc1-c1nn(C)cc1C2
Somatostatin receptor type 5 (SSTR5, Homo sapiens, UniProt P35346, L96A) | cAMP level, antagonist, GloSensor | AD293 | L96A mutant, bandwidth 2.60, together with: CST17 EC80 and forskolin | 447 | CCOc1cc(CN2CCC3(CC2)CN(c2ccc(C(=O)O)cc2)C(=O)N3)c(C2CC2)cc1C
Genome polyprotein protease | enzyme activity, inhibitor, FRET |  |  | 20400 | C=CCn1c(=S)[nH]c2cc3ccccc3cc2c1=O
PIK3CB | enzyme activity, inhibitor, ADP detection |  |  | 126 | O=C1/C(=N\c2cccc(Cl)c2)c2ccccc2N1Cc1ccccc1
Myosin light chain kinase family member 4 (MYLK4, Homo sapiens, UniProt Q86YV6) | enzyme activity, inhibitor, radiometric |  |  | 12 | Nc1ncc2c(n1)-c1c([nH]c3ccc(C4=CCOCC4)cc13)CCC2

target | assay | system | setting | IC50 [nM] | Compound
PIK3CB | kinase activity, inhibitor, Kinase-Glo |  |  | 3780 ± 570 | CC(=O)N1c2ccc(-c3ccc(CNC(=O)c4cn5cc(-c6cnc(N)nc6)nc(N6CCOCC6)c5n4)cc3)cc2CC[C@@H]1C
Poly [ADP-ribose] polymerase 1 (PARP1, Homo sapiens, UniProt P09874) | enzyme activity, inhibitor, radiometric |  |  | 0.13 | COc1cc(-n2cc3cc(F)cc(C(N)=O)c3n2)cc(Cl)c1C1CC(O)(CCO)CC2CCCC21 (stereo not shown)
Poly [ADP-ribose] polymerase 2 (PARP2, Homo sapiens, UniProt Q9UGN5) | enzyme activity, inhibitor |  |  | 7.2 | CN(CCOCCOCCOCCOCCOCCOCCNc1cccc2c1C(=O)N(C1CCC(=O)NC1=O)C2=O)Cc1ccc(-c2[nH]c3cc(F)cc4c3c2CCNC4=O)cc1 (stereo not shown)
Beta-1 adrenergic receptor (ADRB1, Homo sapiens, UniProt P08588) | cAMP level, antagonist, SNAP-tagged EPAC cAMP sensor | HEK cells | together with: isoproterenol 50 nM | 25100 | CNC(=O)c1ccc(-c2cccc3c2OC(CN)C3)cc1 (stereo not shown)
PSMB6 | competitive ABPP | Raji cell lysate |  | > 10000 | COC1CCC(C[C@H](NC(=O)[C@H](CC(C)C)NC(=O)[C@H](Cc2ccc(CN)cc2)NC(=O)[C@H](Cc2ccccc2)N=[N+]=[N-])C(=O)[C@@]2(C)CO2)CC1 (stereo partly shown)
Genome polyprotein protease | enzyme activity, inhibitor, FRET |  |  | 9120 | CCCCn1c(NN)nc2cc3ccccc3cc2c1=O
HDAC8 | enzyme activity, inhibitor, fluorescence |  |  | 317 | CC(C)c1ccccc1OS(=O)(=O)Oc1cccc(C(=O)NO)c1
SLC10A1 |  |  |  | > 80000 | C[C@]12CC[C@@H]3c4ccc(OS(=O)(=O)O)cc4CC[C@H]3[C@@H]1CCC2=O
PIK3CB | enzyme activity, inhibitor, ADP detection |  |  | 385 | Cc1nc(Nc2ccc3c(c2)/C(=C/c2c[nH]c4ccccc24)C(=O)N3)c2ccccc2n1
CatSper channel complex (Homo sapiens, UniProt Q7RTX7+Q86XQ3+Q8NEC5+Q96P56) | calcium influx, inhibitor, FLIPR | human sperm | together with: high pH, high potassium | 6900 | O=C(Nc1cccc(C(F)(F)F)c1)N1CCN(c2ccc(F)cc2)CC1
PIK3CB | enzyme activity, inhibitor, ADP detection |  |  | 47 | CN1C(=O)/C(=N\c2ccc(Cl)cc2Br)c2ccccc21
Kir3.1/Kir3.4 (Homo sapiens, UniProt P48544+P48549) | GIRK current, inhibitor, whole-cell patch clamp | stable cell line |  | > 100000 | COc1ccc2c(c1)CN(C(=O)CCN1CCC(Cc3ccccc3)CC1)CCS2
3 beta-hydroxysteroid dehydrogenase/Delta 5-->4-isomerase type 1 (HSD3B1, Homo sapiens, UniProt P14060) | enzyme activity, inhibitor |  |  | 1180 | O=c1c(-c2ccc(Cl)c(CN3CCOCC3)c2)coc2cc(O)ccc12
PSMB6 | competitive ABPP | Raji cell lysate |  | > 10000 | CC(C)C[C@H](NC(=O)[C@H](Cc1ccc(CN)cc1)NC(=O)[C@H](Cc1ccccc1)N=[N+]=[N-])C(=O)N[C@@H](CC1CC2CCC1C2)C(=O)[C@@]1(C)CO1 (stereo in doubt)
HDAC8 | enzyme activity, inhibitor, fluorescence |  |  | 145 | CC(C)(C)c1ccccc1OS(=O)(=O)Oc1cccc(C(=O)NO)c1
Ceramide glucosyltransferase (UGCG, Homo sapiens, UniProt Q16739) | enzyme activity, inhibitor, RapidFire mass spectrometry |  | together with: UDP-glucose 3 mM | 63 | CC(C)(O)c1ccc(N2Cc3c(ccnc3-c3ccc(F)cc3OCC(F)(F)F)C2=O)cc1
Somatostatin receptor type 5 (SSTR5, Homo sapiens, UniProt P35346) | ligand displacement, radioligand |  |  | > 1000 | C[C@@H](O)[C@@H]1NC(=O)[C@H](CCCCN)NC(=O)[C@@H](Cc2ccc(NC(N)=O)cc2)NC(=O)[C@H](Cc2ccc(O)cc2)NC(=O)[C@H](NC(=O)[C@@H](N)Cc2ccc(Cl)cc2)CSSC[C@@H](C(=O)N[C@@H](Cc2ccc3ccccc3c2)C(N)=O)NC1=O
Serine/threonine-protein kinase MRCK alpha (CDC42BPA, Homo sapiens, UniProt Q5VT25) | enzyme activity, inhibitor |  |  | > 10000 | Cc1nn(-c2cccc(N)c2)c(=O)c2cnc(Nc3ccc(N4CCNCC4)cc3)nc12
CDK2 with cyclin A | radiometric |  | together with: 1 µM ATP | 89 | O=C(Nc1cc(C2CC2)[nH]n1)C1CCC1
SLC10A1 |  |  |  | > 80000 | C[C@H](CCC(=O)NCC(=O)O)[C@H]1CC[C@H]2[C@@H]3CC[C@@H]4C[C@H](O)CC[C@]4(C)[C@H]3C[C@H](O)[C@]12C

A few entries again:
target | assay | system | setting | IC50 [nM] | Compound
SLC10A1 |  |  |  | > 80000 | C[C@]12CC[C@@H]3c4ccc(OS(=O)(=O)O)cc4CC[C@H]3[C@@H]1CCC2=O
HDAC8 | enzyme activity, inhibitor, fluorescence |  |  | 317 | CC(C)c1ccccc1OS(=O)(=O)Oc1cccc(C(=O)NO)c1
PIK3CB | enzyme activity, inhibitor, ADP detection |  |  | 47 | CN1C(=O)/C(=N\c2ccc(Cl)cc2Br)c2ccccc21
cGMP-specific 3',5'-cyclic phosphodiesterase (PDE5A, Homo sapiens, UniProt O76074) | enzyme activity, inhibitor |  |  | 248 | C[C@@H](Nc1nc2c(cnn2C(C)(C)C)c(=O)n1Cc1cccc(F)c1)c1ccc(Cl)cc1
Serine/threonine-protein kinase MRCK alpha (CDC42BPA, Homo sapiens, UniProt Q5VT25) | enzyme activity, inhibitor |  |  | > 10000 | Cc1nn(-c2cccc(N)c2)c(=O)c2cnc(Nc3ccc(N4CCNCC4)cc3)nc12
PSMB6 | competitive ABPP | Raji cell lysate |  | > 10000 | COC1CCC(C[C@H](NC(=O)[C@H](CC(C)C)NC(=O)[C@H](Cc2ccc(CN)cc2)NC(=O)[C@H](Cc2ccccc2)N=[N+]=[N-])C(=O)[C@@]2(C)CO2)CC1 (stereo partly shown)
